Assay results pooled from the literature.
Lines come from different studies, so protocols differ. Numbers after ± are the reported error.
U2AF2: U2AF2 148-342 (Homo sapiens, UniProt P26368)
Chain of UniProt P26368 (whole entry, looked up): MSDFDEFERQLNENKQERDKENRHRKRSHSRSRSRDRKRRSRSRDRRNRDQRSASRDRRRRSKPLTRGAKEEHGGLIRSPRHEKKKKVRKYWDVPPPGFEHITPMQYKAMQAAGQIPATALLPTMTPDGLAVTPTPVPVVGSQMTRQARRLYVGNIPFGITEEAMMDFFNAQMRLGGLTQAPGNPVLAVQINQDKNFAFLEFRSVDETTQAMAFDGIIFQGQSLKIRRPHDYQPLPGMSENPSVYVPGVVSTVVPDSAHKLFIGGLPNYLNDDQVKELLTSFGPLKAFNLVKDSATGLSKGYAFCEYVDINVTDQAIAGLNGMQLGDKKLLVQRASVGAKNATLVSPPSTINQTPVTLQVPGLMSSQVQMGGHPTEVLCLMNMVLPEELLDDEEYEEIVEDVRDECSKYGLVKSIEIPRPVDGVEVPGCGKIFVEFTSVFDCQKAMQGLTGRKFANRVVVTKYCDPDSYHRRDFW
B1: UGT76G1 (Stevia rebaudiana, UniProt Q6VAB4); chain MENKTETTVRRRRRIILFPVPFQGHINPILQLANVLYSKGFSITIFHTNFNKPKTSNYPHFTFRFILDNDPQDERISNLPTHGPLAGMRIPIINEHGADELRRELELLMLASEEDEEVSCLITDALWYFAQSVADSLNLRRLVLMTSSLFNFHAHVSLPQFDELGYLDPDDKTRLEEQASGFPMLKVKDIKSAYSNWQILKEILGKMIKQTKASSGVIWNSFKELEESELETVIREIPAPSFLIPLPKHLTASSSSLLDHDRTVFQWLDQQPPSSVLYVSFGSTSEVDEKDFLEIARGLVDSKQSFLWVVRPGFVKGSTWVEPLPDGFLGERGRIVKWVPQQEVLAHGAIGAFWTHSGWNSTLESVCEGVPMIFSDFGLDQPLNARYMSDVLKVGVYLENGWERGEIANAIRRVMVDEEGEYIRQNARVLKQKADVSLMKGGSSYESLESLVSYISSL
B2: enzyme I20A (Nitrosopumilus maritimus, UniProt A9A5X4); chain MDSQKFDSIIFDCDGVLVDATQSYDKTIDKTCRYVLKEFAKIDSITIDHKIIDGFKSSGGFNDEVDLVYAAILSLYTANKLNKKPSEFIYDVISNTDKTGIRSVQSYLESIYDVSEFLSKLGSLGDRHNNPVYSIFDQFFFGPELYGKLFDKQSKFSEEGMISNDKVILSVSLLETLQKEFGKKIAVVTGRGIESIRYSLKDMMDYFDTKNSAFLEDEPRELAKPNPATLIRAIQSMESKNCLYVGDSMEDYMMAKDAAQAGHSTTFCAIVGTSTNPEDRRKLFADSGVEMILESINDIPKVLNLV
B3: aspC A106G/A17N/A218G/A278L/A281T/A8Q/D18E/F210I/F212I/F350Y/G15S/G249S/I187A/I279A/I29V/I33V/I341V/I5L/I68L/I71L/L46M/M321L/M380L/N285S/N30D/N64T/S129T/S135A/S273G/S351L/T100S/V125I/V136I/V375I/Y244C (Escherichia coli, UniProt P00509); chain MFENLTAQPADPILSLNELFRADERPGKVDLGVGVYKDETGKTPVMTSVKKAEQYLLENETTKTYLGLDGLPEFGRCTQELLFGKGSALINDKRARTAQSPGGTGGLRVAADFLAKNTSVKRVWISNPTWPNHKAIFNSAGLEVREYAYYDAENHTLDFDALINSLNEAQAGDVVLFHGCCHNPTGADPTLEQWQTLAQLSVEKGWLPLIDIAYQGFGRGLEEDAEGLRAFAAMHKELIVASSCSKNFSLYNERVGACTLVAADSETVDRAFGQMKALARTNYSSPPAHGASVVATILSNDALRAIWEQELTDMRQRIQRLRQLFVNTLQEKGANRDFSFVIKQNGMFSYLGLTKEQVLRLREEFGVYAVASGRINVAGLTPDNMAPLCEAIVAVL
B4: human hnRNP L; sequence looked up; chain MSRRLLPRAEKRRRRLEQRQQPDEQRRRSGAMVKMAAAGGGGGGGRYYGGGSEGGRAPKRLKTDNAGDQHGGGGGGGGGAGAAGGGGGGENYDDPHKTPASPVVHIRGLIDGVVEADLVEALQEFGPISYVVVMPKKRQALVEFEDVLGACNAVNYAADNQIYIAGHPAFVNYSTSQKISRPGDSDDSRSVNSVLLFTILNPIYSITTDVLYTICNPCGPVQRIVIFRKNGVQAMVEFDSVQSAQRAKASLNGADIYSGCCTLKIEYAKPTRLNVFKNDQDTWDYTNPNLSGQGDPGSNPNKRQRQPPLLGDHPAEYGGPHGGYHSHYHDEGYGPPPPHYEGRRMGPPVGGHRRGPSRYGPQYGHPPPPPPPPEYGPHADSPVLMVYGLDQSKMNCDRVFNVFCLYGNVEKVKFMKSKPGAAMVEMADGYAVDRAITHLNNNFMFGQKLNVCVSKQPAIMPGQSYGLEDGSCSYKDFSESRNNRFSTPEQAAKNRIQHPSNVLHFFNAPLEVTEENFFEICDELGVKRPSSVKVFSGKSERSSSGLLEWESKSDALETLGFLNHYQMKNPNGPYPYTLKLCFSTAQHAS
B5: enzyme S252E/S281E/S285E/S287E (Schizosaccharomyces pombe, UniProt P78804); chain MSTPYEPEFQQAYKEIVGSIESSKLFEVHPELKRVLPIISIPERVLEFRVTWEDDKGNCRVNTGYRVQFNSALGPYKGGLRFHPSVNLSILKFLGFEQIFKNALTGLPMGGGKGGSDFDPKGKSDNEIRRFSQAFMRQLFRYIGPQTDVPAGDIGVTGFVVMHMFGEYKRLRNEYSGVVTGKHMLTGGSNIRPEATGYGVVYYVKHMIEHRTKGAETLKGKRVAISGSGNVAQYAALKCIQEGAIVKSISDEKGVLIAKTAEGLVPEEIHEIMALKEKRAEIADEAELCKKHHYIAGARPWTNVGEIDIALPCATQNEVSGEEAAALIKQGCRYVAEGSNMGSSAEAVEVFEKSRASGEGCWLAPGKAANAGGVAVSGLEMAQNAQFSTWTHAEVDAKLAGIMQNIFEQSTDVASKYCDSGSNNIPSLVDGANIAGFLKVATAMQAVGDWW
B6: SCO6712 (Streptomyces coelicolor, UniProt Q9XAL8); chain AKGITARTAPAGGEVRHLKMYAEKLADGQMGYGFEKGKASVPGPLIEVNEGDTLHIEFTNTMDVRASLHVHGLDYEISSDGTAMNKSDVEPGGTRTYTWRTHKPGRRDDGTWRPGSAGYWHYHDHVVGTEHGTGGIRNGLYGPVIVRRKGDVLPDATHTIVFNDMTINNRKPHTGPDFEATVGDRVEIVMITHGEYYHTFHMHGHRWADNRTGILTGPDDPSRVIDNKITGPADSFGFQIIAGEGVGAGAWMYHCHVQSHSDMGMVGLFLVKKPDGTIPGYEPHEHGGATAKSGESGEPTGGAAAHEHEH
B7: enzyme (Lactiplantibacillus plantarum, UniProt Q06115); chain CTAITYQSYNNYFGRNFDYEISYNEMVTITPRKYPLVFRKVENLDHHYAIIGITADVESYPLYYDAMNEKGLCIAGLNFAGYADYKKYDADKVNITPFELIPWLLGQFSSVREVKKNIQKLNLVNINFSEQLPLSPLHWLVADKQESIVIESVKEGLKIYDNPVGVLTNNPNFDYQLFNLNNYRALSNSTPQNSFSEKVDLDSYSRGMGGLGLPGDLSSMSRFVRAAFTKLNSLSMQTESGSVSQFFHILGSVEQQKGLCEVTDGKYEYTIYSSCCDMDKGVYYYRTYDNSQINSVSLNHEHLDTTELISYPLRSEAQYYAVN
B8: enzyme (Parabacteroides distasonis, UniProt A0A7L5EB83); chain QSETNRLDSIMPVRGLAIAAPSAQKLDLFLKFVQEELAPSHFNLLILRVDWNYAYESHPELRDPTPLTREDVKKIVKVCRDNGIRIAPQINLLGHQSWAETTYALLREYPEFDETPHVDTKNYTGWPNSDGLYCKSYCPLHPEVHKIVFALVDELTDVFETQLFHAGMDEVFYIGHDSCVRCGGHDKAELYAGEVTKIQNHLASQGKRLMIWGDRLIDGKTTGIGAWEASMNNTYRAIDLIPKDVFICDWHYERAEQTAVYFAMKGFDVATCPWRKPQIALQQVDDMIHFRQHSNPEMSRHFQGIIETVWSGTDSFLEAYYNPTTYKQEVSDAVTVKKLIEKYKALENR
B9: enzyme (Kluyveromyces lactis, UniProt Q6CSZ6); chain MSSLDINEQRALIKSAHRYISEKLEDHFSSEFLPKALVICGSGLSGISTKIADEPKPLILSYSTIPGFKVSTVPGHSGELIFGYMNGAPVVLMNGRLHSYEGHSLAETVHPIRALHLLGSINVLIVTNAAGGINASFKAGDLMCVYDHINFPGLCGFHPLRGANFDEFGPRFLATSDAYDLELRKLLFSKKKELNIERKIHEGTYSYVHGPTFESRAESRFLRLAGTDAVGMSTVPEVVTARHCGWRVLALSLITNECVVDPPASAHDENPVPIQEGKATHEEVLENSAKASKDVQELIFSVVAEI

B1 (UGT76G1)
kcat/Km (C=C1C[C@@]23CC[C@H]4[C@@](C)(CCC[C@@]4(C)C(=O)O[C@@H]4O[C@H](CO)[C@@H](O)[C@H](O)[C@H]4O)[C@@H]2CC[C@]1(O[C@@H]1O[C@H](CO)[C@@H](O)[C@H](O)[C@H]1O)C3; steady-state kinetics; pH 7.25, 40 °C): 1680 M⁻¹ s⁻¹

B2 (enzyme I20A)
kcat/Km (N[C@H](COP(=O)(O)O)Cc1c[nH]cn1; steady-state kinetics; pH 7.8, 25 °C): 1520 ± 200 M⁻¹ s⁻¹

UCUUUUUUU (ssRNA)
Kd (U2AF2; sequencing of bound RNA; RNA; motif only): 0.62 µM

B3
kcat/Km (N[C@@H](CC(=O)O)C(=O)O; steady-state kinetics; pH 7.5, 25 °C, together with: PMP 20 µM): 150 M⁻¹ s⁻¹

B4 (human hnRNP L)
log2 fold change (PP6C (human); co-immunoprecipitation, IP-MS; CYB5R4 knockout cells; concentration not given; reference: CYB5R4 knockout over parental): -2.59

B5 (enzyme S252E/S281E/S285E/S287E)
kcat/Km (NC(=O)C1=CN([C@@H]2O[C@H](COP(=O)(O)OP(=O)(O)OC[C@H]3O[C@@H](n4cnc5c(N)ncnc54)[C@H](OP(=O)(O)O)[C@@H]3O)[C@@H](O)[C@H]2O)C=CC1; steady-state kinetics; pH 7, 30 °C, apparent): 100000 ± 10000 M⁻¹ s⁻¹

B6 (SCO6712)
kcat/Km (CCn1c(=NN=c2sc3cc(S(=O)(=O)O)ccc3n2CC)sc2cc(S(=O)(=O)O)ccc21; steady-state kinetics; pH 7, 37 °C, NaCl 150 mM, together with: O2 cosubstrate): 430 ± 600 M⁻¹ s⁻¹

CCUUAAACU (ssRNA)
Kd (U2AF2; sequencing of bound RNA; RNA; motif only): 9.71 µM

B7 (enzyme)
kcat/Km (C[C@H](CCC(=O)N[C@@H](Cc1ccccc1)C(=O)O)[C@H]1CC[C@H]2[C@@H]3[C@H](O)C[C@@H]4C[C@H](O)CC[C@]4(C)[C@H]3C[C@H](O)[C@]12C; steady-state kinetics; pH 6.2, 37 °C): 13800 ± 2000 M⁻¹ s⁻¹

B8 (enzyme)
kcat/Km (CC(=O)N[C@H]1[C@H](Oc2ccc([N+](=O)[O-])cc2)O[C@H](CO)[C@@H](O[C@@H]2O[C@H](CO)[C@H](O)[C@H](O)[C@H]2O)[C@@H]1O; steady-state kinetics; pH 6, 50 °C): 13400 M⁻¹ s⁻¹

B9 (enzyme)
kcat/Km (OC[C@H]1O[C@@H](n2cnc3c(O)ncnc32)[C@H](O)[C@@H]1O; steady-state kinetics): 170000 M⁻¹ s⁻¹

A few entries again:
B5 (enzyme S252E/S281E/S285E/S287E)
kcat/Km (NC(=O)C1=CN([C@@H]2O[C@H](COP(=O)(O)OP(=O)(O)OC[C@H]3O[C@@H](n4cnc5c(N)ncnc54)[C@H](OP(=O)(O)O)[C@@H]3O)[C@@H](O)[C@H]2O)C=CC1; steady-state kinetics; pH 7, 30 °C, apparent): 100000 ± 10000 M⁻¹ s⁻¹

CCUUAAACU (ssRNA)
Kd (U2AF2; sequencing of bound RNA; RNA; motif only): 9.71 µM
